Assay results pooled from the literature.
Parts stem from different laboratories: compare values within a part only. Positions count from the first letter of the parent shown.

Series 1
Target: Ras GTPase-activating protein-binding protein 1, full length (G3BP1, Homo sapiens, UniProt Q13283)
Sequence of UniProt Q13283 (whole entry, looked up): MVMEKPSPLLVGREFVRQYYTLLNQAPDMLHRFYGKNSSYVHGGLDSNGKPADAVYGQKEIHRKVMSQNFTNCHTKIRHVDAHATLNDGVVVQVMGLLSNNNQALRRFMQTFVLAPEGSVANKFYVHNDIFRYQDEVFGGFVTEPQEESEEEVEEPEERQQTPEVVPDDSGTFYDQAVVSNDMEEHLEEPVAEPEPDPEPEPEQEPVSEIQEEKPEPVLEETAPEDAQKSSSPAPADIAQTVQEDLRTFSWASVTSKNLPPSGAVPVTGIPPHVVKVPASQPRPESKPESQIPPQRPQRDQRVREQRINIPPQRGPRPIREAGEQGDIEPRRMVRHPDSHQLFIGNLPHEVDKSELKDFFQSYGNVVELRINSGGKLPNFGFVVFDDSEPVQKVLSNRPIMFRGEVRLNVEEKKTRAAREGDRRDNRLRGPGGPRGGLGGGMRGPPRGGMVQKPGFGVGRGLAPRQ
Technique: RNA Bind-n-Seq
Form: RNA
Matrix: in vitro
Tested at: 200 nM
Setting: whole 134-nt RNA, ends assumed
Added: 150 mM KCl
Baseline: input library
Direction: higher = stronger binding
Quantity: log2 enrichment
Constant ends, left off below: GGGAGUUCUACAGUCCGACGAUC … UGGAAUUCUCGGGUGUCAAGG
CAAGUCCUGUGCUACACAUCGUAUGUACCGAAUCGGUUUUUGGAAAAAGGUUUGGAAAGUAUUAUGUUACGCCGUUCGGAUCUGCACUUC: -1.37
CACAGACAACACGCACCCACACAGACACAGAGGGAAGGGGUUGGGAUGGGGACAGGGUGAAAAGCAGGGCGGGGUAGGACCCCAGCCCCU: 1.58
GUCCUGUGCUACACAUCGUAUGUACCGAAUCAAACCCAAAUUUUUUUAAAUUUUUAAAAAAGUAUUAUGUUACGCCGUUCGGAUCUGCAC: -0.511
UGGGAGGUGGAUUUUGUUUAUUUUUUUAUCUCAUUUCCAGGGGUGGGAAUUUUUUUUUAAUAUGUGUCAUGAAUAAAGUUGUUUUUGAAA: 0.103
CACAGACAACACGCACCCACACAUACACAGAGGGAAGGGGUUGGGAUGGGGACAGGGUGCACAGCAGGGCGGGGUAGGACCCCAGCCCCU: 1.74
CUGUGCUACACAUCGUAUGUACCGAAUCGGGGUUUUUUUGGGUUUUUUUGGGUUUUUUUGGAAAGUAUUAUGUUACGCCGUUCGGAUCUG: -0.741
ACCAUGCAGGUAGGCAUCUUUGGGAAGUGGGGCAAGGGGGGGAUAGGGAGGGGGGUAACACUUUGGGAACAGGUGGUCCCAGGUCGUUUC: 1.3
UUUCUCCAAGGACAUCAAGGUGCCCAAGAGCCGCUACCUGGGCUACAUCAAGGACUACGAGGGAGCGACGCUGAUGGAGUGUGAGCUGAA: -1.02
AGUCCUGUGCUACACAUCGUAUGUACCGAAUCGGUUUUUGGAAAAAGGUUUUUUUGGAAAGUAUUAUGUUACGCCGUUCGGAUCUGCACU: -1.72

Series 2
Target: RNA binding protein fox-1 homolog 2, RRM domain, GST-SBP tag (RBFOX2, Homo sapiens, UniProt O43251-10, residues 100-194)
Technique: RNA Bind-n-Seq
Form: RNA
Matrix: in vitro
Tested at: 365 nM
Setting: natural RNA segment, single round, ends assumed
Baseline: no-protein control
Direction: higher = stronger binding
Quantity: RBNS enrichment (R)
Constant ends, left off below: GGGAGUUCUACAGUCCGACGAUC … UGGAAUUCUCGGGUGCCAA
Residues (chain): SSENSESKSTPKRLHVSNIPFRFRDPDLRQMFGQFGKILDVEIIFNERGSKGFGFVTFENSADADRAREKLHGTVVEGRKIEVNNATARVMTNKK
GGAGCAGAGGGCACCCCAGGCCCUUCUUGCUCCACAGUCCCCCGCCCGCAGCAUACUCCACUCAUAACCGUAUAUUACAAACUCAUUUUGGUUUCUGGCUUUUUGUUUUG: 0.499
CUCCCUGCUAUUGUGGACCUAAGCAAUUACAGUUUAAAUUCUGUAUACAGCACUAGUCAAGACAAUGUGAUAUCCUUCCACCUUCCCCCUUUAUUUCAAGAAAUGCAUAG: 0.902
UUUAUACCAAGAGAUUCUUCUAGAUCUCAUUGAUCCUUUUGAAGAGCUUUUUCUAUAUUAGGAUAUCAGAAUUGUUCAACUUUUCACUCUAUAGACUGUUUUAAGAGUUU: 0.475
GGAAAGAAAAUGAUGUCUGUUGUUAUAGUUCAUUGUUUUGCCUACUCAGCAGAAGUGAUGACUCUUAAAAAUUGGCUUUGACCAAAGUUCUCUUGUUUUCAGGGAAAGAA: 0.364
GCCAGCUGGGAGCACUGGUGUGAACUCACCCUGGGAGCCAGUCCUCCACUCGACCCAGAAUGGAGCCUGCUCUCCGCGCCUACCCUUCCCGCCUCCCUCUCAGAGGCCUG: 0.288
CUGUUAAUUUUAUAAGCUAGAAAUCACUAUAAUGAAUUAUGCCAAUUCUGAAAAAUUUUACACAUGUAUGGCAACACCUGAUCUAUCGGUUAUCCAACGCUUCAUUGUAC: 0.604
CACGGUGUUCUCAGCACCGUGAUCUGUCAGCUGUGCUCUCUUAGCCUCCAGCCUGAGCUCUCAAGAGGUGGUAGAGCUAAGCUCUGGAGGUGGAGUCUUAGGAAGACCCA: 0.394
AGACUAUUUUCCCCCAGUAGCGCUUUUUUCUGGAUUUGCAUUCAGGUGUUAUUCUUAAUGUUUCUGUCAAAGCUUCUUAAAAAUCUUCACUUGGUUUCAGCCAUAGUUCA: 0.508

Series 3
Target: Interferon regulatory factor 7, full length, phosphomimetic (IRF7, Homo sapiens, UniProt Q92985, residues 1-503, S101K/S471D/S472D/S475D/S476D/S477D/S483D/S484D/S487D)
Technique: protein-binding microarray
Form: double-stranded DNA, one strand shown
Matrix: in vitro
Tested at: 250 nM
Setting: 60-bp whole probe
Added: salmon DNA 0.4 mg/ml
Baseline: random background probes
Direction: higher = stronger binding
Quantity: log fluorescence
Constant ends, left off below: GCCTAGCAC … GTCTTGATTCGCTTGACGCTGCTG
Construct (chain): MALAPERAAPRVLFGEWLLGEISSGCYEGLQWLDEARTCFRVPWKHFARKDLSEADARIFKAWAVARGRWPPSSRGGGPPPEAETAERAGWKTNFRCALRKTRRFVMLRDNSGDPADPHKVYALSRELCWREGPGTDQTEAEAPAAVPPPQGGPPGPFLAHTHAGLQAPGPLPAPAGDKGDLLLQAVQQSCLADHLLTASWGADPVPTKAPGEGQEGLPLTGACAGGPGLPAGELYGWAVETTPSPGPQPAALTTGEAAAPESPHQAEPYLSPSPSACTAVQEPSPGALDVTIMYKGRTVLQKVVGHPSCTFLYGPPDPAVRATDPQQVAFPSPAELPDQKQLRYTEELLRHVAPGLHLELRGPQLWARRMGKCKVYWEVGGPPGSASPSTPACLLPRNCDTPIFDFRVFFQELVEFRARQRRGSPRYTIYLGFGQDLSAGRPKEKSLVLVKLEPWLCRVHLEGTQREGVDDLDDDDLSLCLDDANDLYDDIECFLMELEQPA
TCAACTAGGGAATTTAGAACTGTGCTA: -0.297 z-score
GACGATTTCAGTATCGGGACGTGCTAG: 0.419 z-score
GACGATTTCAGTTTCGTGACGTGCTAG: 2.6 z-score
GACGCTCTCCTTTTCCTGACGTGCTAG: 0.873 z-score
GACGATATCAGTCTCGAGAAGTGCTAG: 0.276 z-score
GACGATTTCAGTATCGAGAAGTGCTAG: 0.158 z-score
GACGATATCGGAACTGGAGACGTGCTA: 0.169 z-score
GACGAACTGAGGACTGGAGACGTGCTA: -0.182 z-score
TCATAACTCATTCTCTGACTGTGCTAG: 0.612 z-score
CACGATTCCAGTTTCGAGACGTGCTAG: 5.09 z-score
GAGGATCTCAGTCTCGAGACGTGCTAG: 0.222 z-score
TTAGTACTGAGTCTCGATTAGTGCTAG: 1.59 z-score
GACTGTCTCCTTATCCTGACGTGCTAG: 0.0127 z-score
CTACGTCTGATTTTGCTTTCGTGCTAG: 0.292 z-score
TTAGGACTGCTTAGCCTTTAGTGCTAG: -0.0973 z-score
GACGGACTGCTTACCCTGACGTGCTAG: -0.324 z-score
TTAGATATCGGTTTCGGTTAGTGCTAG: 9.31 z-score
CTCGGGACAGGCACTCTACGGTGCTAG: -0.727 z-score
CTGTACTTGAATTCTGCAAAGTGCTAG: 0.567 z-score

Series 4
Target: FOSL1, bZIP domain (human)
Technique: DHFR protein complementation
Matrix: yeast
Setting: single substitutions, most at no-binding floor
Baseline: wild-type JUN-FOS pair
Direction: higher = stronger binding
Quantity: binding fitness
Starting sequence: JUN, bZIP domain (human); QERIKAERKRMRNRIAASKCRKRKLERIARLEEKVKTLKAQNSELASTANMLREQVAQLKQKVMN; partner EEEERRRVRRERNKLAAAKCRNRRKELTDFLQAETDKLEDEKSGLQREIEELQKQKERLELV
A29E: -0.499 natural log
K39F: -1.29 natural log
V56R: -1.41 natural log
N42S: -1.2 natural log
V35W: -0.793 natural log
N42C: -0.191 natural log
M51C: -0.605 natural log
S43D: -0.452 natural log
A57V: -0.688 natural log
A57M: -0.57 natural log
L59G: -1.33 natural log
E32Y: -0.825 natural log
T48I: -0.414 natural log
V56P: -1.4 natural log
E44D: -0.554 natural log
A49W: -1.13 natural log
K36F: -0.842 natural log
L45Q: -1.48 natural log
R30L: -0.24 natural log
K34P: -1.41 natural log
